Measurements of several laboratories.
Numbered parts are unrelated; each lists some results of a single study.

Series 1
Target: Histone acetyltransferase KAT6A, winged helix 2, GST fusion (KAT6A, Homo sapiens, UniProt Q92794, residues 85-181)
Technique: protein binding microarray
Molecule type: double-stranded DNA, one strand shown
Medium: in vitro
Tested at: not given
Notes: 8-mer, flanks averaged, mean of 2 arrays, mostly near background
Baseline: not given
Direction: higher = stronger binding
Endpoint: E-score
Target sequence (chain): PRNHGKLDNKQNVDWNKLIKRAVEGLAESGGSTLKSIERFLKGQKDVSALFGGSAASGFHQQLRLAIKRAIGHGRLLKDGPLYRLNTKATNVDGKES
ATACGCCA: 0.0671
CGAGATTA: 0.164
AAACTAGC: 0.0397
AGCCTAAG: -0.0779
ACGAAGCG: -0.119
AGCTGCTA: -0.0893
GCGACGCC: 0.193
CGATTAAA: 0.142
ATCACAAA: 0.0668
AGGTCAAA: -0.0987
ATTGAACC: -0.0905
TCCATTAA: 0.00722
GAATTTCC: -0.0809
TAATTAAA: 0.0674
ATTTTTTC: 0.0869
AAGCCACG: -0.116
CACTTCAA: -0.0114
TAAGTGCA: -0.115
ACACTAGA: -0.0639
AGGCCACA: -0.0886
ATCTAGAG: -0.135
ACTAGAAC: -0.0477
ACATGGTC: -0.0797
GGTAAATA: -0.00483

Series 2
Target: Max-binding protein MNT, bHLH-zipper, MAX partner unstated (MNT, Homo sapiens, UniProt Q99583, residues 220-300)
Technique: protein-binding microarray
Molecule type: double-stranded DNA, one strand shown
Medium: in vitro
Tested at: not given
Notes: k-mer, scored over probes, only values ≥0.25
Direction: higher = stronger binding
Endpoint: E-score
Target sequence (chain): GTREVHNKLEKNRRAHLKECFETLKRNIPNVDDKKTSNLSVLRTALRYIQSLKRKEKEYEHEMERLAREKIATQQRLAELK
AAACGTGA: 0.356
CAGGTGGG: 0.353
ATGGCATG: 0.364
AACACGGG: 0.33
AGCATGCG: 0.438
ATGTGCGA: 0.312
GCGTGGGA: 0.406
CGTGCGAA: 0.367
CGTGCATA: 0.351
CCCCAACG: 0.319
ACGCTGCC: 0.272
GTGGCAGA: 0.261
ACCGCACG: 0.295
ACGCACAT: 0.405
ACGCGACC: 0.27
CACATGTC: 0.457
CACACGGG: 0.282
ACGTGGAT: 0.433
ACACGTCC: 0.254
CATGCGGA: 0.426
CGTGCGGA: 0.343
ACGCGACT: 0.383

Series 3
Target: Ras GTPase-activating protein-binding protein 1, full length (G3BP1, Homo sapiens, UniProt Q13283)
Sequence of UniProt Q13283 (whole entry, looked up): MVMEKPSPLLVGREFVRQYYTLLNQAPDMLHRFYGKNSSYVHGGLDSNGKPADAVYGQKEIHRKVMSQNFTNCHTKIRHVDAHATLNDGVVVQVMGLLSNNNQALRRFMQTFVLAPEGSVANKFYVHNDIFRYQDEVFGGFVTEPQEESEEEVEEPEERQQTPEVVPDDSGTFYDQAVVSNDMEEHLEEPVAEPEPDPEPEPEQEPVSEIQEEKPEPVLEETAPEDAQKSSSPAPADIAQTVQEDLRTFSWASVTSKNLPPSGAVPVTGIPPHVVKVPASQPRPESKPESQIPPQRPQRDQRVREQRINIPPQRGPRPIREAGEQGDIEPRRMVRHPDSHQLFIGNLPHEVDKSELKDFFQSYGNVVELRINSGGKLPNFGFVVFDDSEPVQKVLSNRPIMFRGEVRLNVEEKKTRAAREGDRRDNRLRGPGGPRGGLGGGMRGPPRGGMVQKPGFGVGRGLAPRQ
Technique: RNA Bind-n-Seq
Molecule type: RNA
Medium: in vitro
Tested at: 200 nM
Notes: whole 134-nt RNA, ends assumed
Added: 150 mM KCl
Baseline: input library
Direction: higher = stronger binding
Endpoint: log2 enrichment
Shared flanks, not repeated: GGGAGUUCUACAGUCCGACGAUC … UGGAAUUCUCGGGUGUCAAGG
GUCCUGUGCUACACAUCGUAUGUACCGAAUCGGGGAAAAAAAGGGGAAAGGGGUGGGGAAAGUAUUAUGUUACGCCGUUCGGAUCUGCAC: 0.188
CAAGUCCUGUGCUACACAUCGUAUGUACCGAAUCGGAAAAGGAAAAGGAAAAGGGAAAGUAUUAUGUUACGCCGUUCGGAUCUGCACUUC: -0.83
AAGUCCUGUGCUACACAUCGUAUGUACCGAAUCGGUUUGGAAAAAGGUUUUUUUGGAAAGUAUUAUGUUACGCCGUUCGGAUCUGCACUU: -1.39
UCCUGUGCUACACAUCGUAUGUACCGAAUCGGAAAAAAAGGUUUUUUUGGUUUUUUUGGAAAGUAUUAUGUUACGCCGUUCGGAUCUGCA: -1.04
AAGUCCUGUGCUACACAUCGUAUGUACCGAAUCGGGAAAAGGGAAAAGGGGAAAAGGAAAGUAUUAUGUUACGCCGUUCGGAUCUGCACU: -0.588
UCCUGUGCUACACAUCGUAUGUACCGAAUCGGGCCCCCCGGGCCCCCCGGGCCCCCCGGAAAGUAUUAUGUUACGCCGUUCGGAUCUGCA: -0.257
CAAGUCCUGUGCUACACAUCGUAUGUACCGAAUCGGGAAAGGGGAAAGGGAAAGGAAAGUAUUAUGUUACGCCGUUCGGAUCUGCACUUC: -0.326
UCCUCAAGUCCUGUGCUACACAUCGUAUGUACCGAAUCGUGUGUGUGUGUGUAAAGUAUUAUGUUACGCCGUUCGGAUCUGCACUUCCAG: 0.403
CUCAAGUCCUGUGCUACACAUCGUAUGUACCGAAUCGGGGUGGGGUGGGGUGGAAAGUAUUAUGUUACGCCGUUCGGAUCUGCACUUCCA: 1.24
UAACUUUAGAGGAGGAUCUGAUGGAUAUGGCAGUGGACGUGGAUUUGGGGAUGGCUAUAAUGGGUAUGGAGGAGGACCUGGAAGUGGCAA: 0.247
UCCUGUGCUACACAUCGUAUGUACCGAAUCGGGUUUUUGGGGUUUUUGGGGUUUUUGGGAAAGUAUUAUGUUACGCCGUUCGGAUCUGCA: 0.144
CACAGACAACACGCACCCACACAGCCACAGAGGGAAGGGGUUGGGAUGGGGACAGGGUGCACAGCAGGGCGGGGUAGGACCCCAGCCCCU: 1.81
UCCUCAAGUCCUGUGCUACACAUCGUAUGUACCGAAUCGGGAGGAGGGGAGGAAAGUAUUAUGUUACGCCGUUCGGAUCUGCACUUCCAG: 0.228
CCUCAAGUCCUGUGCUACACAUCGUAUGUACCGAAUCGGGCGGGCGGGCGGGAAAGUAUUAUGUUACGCCGUUCGGAUCUGCACUUCCAG: 1.58

Series 4
Target: Phosphate system positive regulatory protein PHO4, full length, GST-tagged (PHO4, Saccharomyces cerevisiae, UniProt P07270, residues 1-312)
Technique: competition protein-binding microarray
Molecule type: double-stranded DNA, one strand shown
Medium: in vitro
Tested at: 2 µM
Notes: whole 60-bp probe, lowest competitor level
Added: Cbf1 competitor, 0.05 µM
Direction: higher = stronger binding
Endpoint: fluorescence intensity
Shared flanks, not repeated: … GTCTTGATTCGCTTGACGCTGCTG
Construct (chain): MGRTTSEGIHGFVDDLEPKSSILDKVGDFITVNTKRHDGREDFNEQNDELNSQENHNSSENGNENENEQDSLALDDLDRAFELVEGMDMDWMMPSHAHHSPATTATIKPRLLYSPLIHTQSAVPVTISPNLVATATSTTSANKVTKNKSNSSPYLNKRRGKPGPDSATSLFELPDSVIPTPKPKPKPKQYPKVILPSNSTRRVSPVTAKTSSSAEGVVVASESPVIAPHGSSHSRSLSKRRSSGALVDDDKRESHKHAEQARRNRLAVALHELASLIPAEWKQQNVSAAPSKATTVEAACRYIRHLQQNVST
CTTCTGTAAATTTGGGACGTGGGTGGACGCGCCCCG: 6400 a.u.
CGAGTCTAATGACTTGACGTGGCCGTTTTTCTTGTC: 3950 a.u.
CATGCTGTTTTAGCGCGCGTGATGGGGACATAGATG: 10100 a.u.
CCATCTCTACTGACTCACATGGCCTGGAACGCAAGT: 7450 a.u.
TCTTATTTAATTCGTCACAGACGGTAACGCAGCGCC: 3560 a.u.
CGGGGTTAAGTTTGACGAGTGGGTGGCTTGCAGCAG: 4390 a.u.
CGGCTACTGAATCTTTACATTACTTGAGCTGAGAAG: 2900 a.u.
CTTTCCCGATCTTGTCACCATACTTTAGCACATTTG: 4090 a.u.
CCCGGTATTAGTTTGCACGTTTTCTTTCCTTTGCTT: 12000 a.u.
CGGGGTTAAGTTTGCTCCGTGGGTGGCTTGCAGCAG: 5430 a.u.
TGGAGCCCGCAGCGTCACATGGCGTCTGGGGGCTTG: 6480 a.u.
TGCCGGTAATGCAAGCTCGTGCTTTCGCGATCGTAG: 10800 a.u.
AAATTACTAAGTTGTCACCCAACTTACCCCGTATGA: 3480 a.u.
TGTTGCCCGCCACTTAGTGTGACAGTCCCAGTCCCA: 2770 a.u.
CTTTCCCGATCTTGCACGGTGGGTGTAGCACATTTG: 6970 a.u.

Series 5
Target: RING finger protein unkempt homolog, zinc fingers 1-6, GST-SBP tag (UNK, Homo sapiens, UniProt Q9C0B0, residues 30-357)
Sequence of UniProt Q9C0B0 (30-357, looked up): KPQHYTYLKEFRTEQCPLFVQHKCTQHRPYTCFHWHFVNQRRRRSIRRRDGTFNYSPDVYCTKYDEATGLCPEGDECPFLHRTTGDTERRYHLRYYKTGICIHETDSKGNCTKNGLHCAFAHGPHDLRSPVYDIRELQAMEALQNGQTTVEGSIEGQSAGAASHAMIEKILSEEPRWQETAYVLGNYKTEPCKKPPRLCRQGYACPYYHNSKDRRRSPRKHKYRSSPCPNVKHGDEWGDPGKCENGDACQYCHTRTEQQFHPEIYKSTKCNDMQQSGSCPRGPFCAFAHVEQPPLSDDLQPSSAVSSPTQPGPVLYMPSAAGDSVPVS
Technique: RNA Bind-n-Seq
Molecule type: RNA
Medium: in vitro
Tested at: not given
Notes: RNA with constant flanks, human-mouse chimeric sites, ends assumed
Baseline: input RNA pool
Direction: higher = stronger binding
Endpoint: bound/input enrichment
Shared flanks, not repeated: GGGAGUUCUACAGUCCGACGAUC … CAACAGAGGAUUGAGCAUCA
UGUGAACUGAAAGGUGUGAUCUAAAAACAAGAUGACUUUUCCUGGCACAUAUUCCAAAGCAUAGACUUUGUUGCCUGCUGCUUAUUGUCUAAUUUACAGGGAUAUUUAAUUUUGUCAGGU: 0.142 ratio
CAGCCUCAGAGCCCAGACUUCCUGGAUAUUACCAACCCCAAAGCCGUAUUAGAAAACGCAUUGAGAAACUUCGCCUGUCUGACGACUGGAGAUGUGAUUGCUAUCAACUACAAUGAGAAG: 0.401 ratio
UGUGAACUGUCUCUUGAGAUCUAAAAACAAGAUGACUUUUCCUGGCACAUAUUCCAAAGCAAAGACUUUGUUGCCUGCUGCUUCUUGUCUAAUUUACAGGGAUAUUUAAUUUUGUAAGGU: 0.147 ratio
UGUAGUUUCUUGAUUUAUCAUUUUUCUCUUUUCUUUCAGAUCGUCAGGAAAAGCCUAAAGAUUAGGUUGUAAGAAAAACAGAAGCCAUGUUUCGAAGGAAGACCUGUCAGGUAUUUCGUC: 0.299 ratio
CAGGGCAUUAUUUCUCGUGCUGUUAGACACCUGUUCAAGAGUAUUGAAGAAAAAAAAACCUCAGCGAUUAAAAACGGGCUGCCCCCUCCUGAAUUCAAAGUGAAUGCCCAGUUCCUAGAG: 0.374 ratio
GGACAUCUGUCAAAUUGUAUUUCCCGUGUGAAACAAGUGAACACUCUGAUACACUUCAUCUGCUUGUACAUUUAACUGAUAGAGAAAUGUAAAUAUGUUAAUCCAAGCAAUGUGUCACUU: 0.351 ratio
AGAGAUAAGACAUCCAGAAAUAUGAGAGGCUCCCGGAUGAAUGGGUUGCCUAGCCCCACUCACAGCGCCCACUGUAGCUUCUACCGAACCAGAACCUUGCAGGCACUGAGUAAUGAGAAG: 0.231 ratio
UAAAUUAGGGCUGCCGUCCGUUCUCACUCCCUGGGCUGCGGAAAGCCAGAAGAUUUUAUCUAGCUUAUACAAGGCUGCUGGUGUUCCCUCUUUUUUUCCACGAGGGUUUUUUUUCCAGCA: 0.59 ratio
CAGGGCAUUAUUUCUCGUGCUGUUAGACACCUGUUCAAGAGUAUUGAUGAGAAAAAGACCUCAGCGAUUAAAAACGGGCUGCCCCCUCCAGAUUUUAAAGUGAAUGCCCAGUUCCUAGAG: 0.147 ratio
UUUGUAUUUAUGCUAAGCACACGUGCUGGUGGUCUGGGCAUCAAUCUUGCAACUGCUGAUGUAGUCAUUUUAUAUGACUCAGAUUGGAAUCCGCAAGUAGAUCUUCAGGCUAUGGACCGU: 0.112 ratio
AAAGAACCUCUCUCUGAUGAAGAUGAGGAAGACAAUGAUGAUGUUGAACCCAUUUCUGAAUUUCGAUUUGUGCCCAGUGAUAAGUCAGCGUUGGAGGCGAUGUUCACUGCAAUGUGCGAG: 0.237 ratio

Excerpt of the above (series 2):
AAACGTGA: 0.356
CAGGTGGG: 0.353
ATGGCATG: 0.364
AACACGGG: 0.33
AGCATGCG: 0.438
ATGTGCGA: 0.312
GCGTGGGA: 0.406
CGTGCGAA: 0.367
